Experimental data of several laboratories.
Each line is one published result; not all experiments were run side by side. ± gives the spread as reported.
UniProt Q96S44, sequence (whole entry, looked up): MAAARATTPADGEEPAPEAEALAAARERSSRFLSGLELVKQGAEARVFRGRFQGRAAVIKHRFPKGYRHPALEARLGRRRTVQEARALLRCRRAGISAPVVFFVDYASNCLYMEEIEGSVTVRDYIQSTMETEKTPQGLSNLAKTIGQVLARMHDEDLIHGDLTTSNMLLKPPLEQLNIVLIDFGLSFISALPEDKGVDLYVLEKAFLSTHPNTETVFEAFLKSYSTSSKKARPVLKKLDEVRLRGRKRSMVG

Compound | tested on | assay | test system | conditions | how to read | measurement | value
CNC(=O)c1ccc(-c2cnc3ncc(Cc4ccc5ncccc5c4)n3n2)cc1F |  |  | Japanese patients | oral, 400 mg, grade 3/4 |  | Hypokalaemia dose reduction/interruption | 1%
Nc1ncnc2c1ncn2[C@H]1C[C@@H]2OP(=O)(O)OC[C@H]3O[C@@H](n4cnc5c(N)ncnc54)C[C@@H]3OP(=O)(O)OC[C@H]2O1 |  |  | non-tumor-bearing mice, blood | intravenous, 1 mg/kg, toxicity study |  | lymphocyte percentage | 79.4 ± 4.69%
CNCCCN1c2ccccc2CC(O)c2ccccc21 (centres unmarked) |  | reverse phase LC, C18 | acetonitrile gradient, 0.1% formic acid | converted from retention time | reference: Valko CHI standards | chromatographic hydrophobicity index | 48.2
CN(C)C/C=C/C(=O)Nc1cc2c(Nc3ccc(F)c(Cl)c3)ncnc2cc1O[C@H]1CCOC1 |  |  | PBS | 100 µM, 23 h, pH 7.45, 37 °C, added: GSH 5 mM |  | GSH adduct formation | 94%
COc1ccc([C@@H]2COC[C@H](c3ccc(-c4ccccc4)cc3)N2)cc1 |  | shake-flask, 1-octanol/buffer |  | pH 7.4 |  | logD | > 4.7
Cc1cc(Nc2cc3ncccc3c(N[C@@H]3C[C@H]4CC[C@@H](C3)N4CCC#N)n2)n[nH]1 |  |  | healthy human | oral, 10 mg single dose, 2 weeks |  | subjects with epistaxis | 0%
COc1ncc(-c2nc3c(n2C(C)C)[C@H](c2ccc(Cl)cc2)N(c2cc(Cl)cn(C)c2=O)C3=O)c(OC)n1 |  |  | human patients, plasma | oral, 25 mg, low-dose arm, cycle 2 day 1 |  | median half-life | 18.5 h
CC[C@@H]1[C@H](F)C(=O)N[C@@H]1COc1nccc2cc(C(N)=O)c(OC)cc12 | TP53RK (Homo sapiens, UniProt Q96S44) | ATP probe binding, KiNativ profiling, refers to: ATP loop probe site | THP-1 cell lysate | 0.2 mM |  | inhibition | 15.3%
C[C@@H](O)CCOC(=O)C[C@@H](C)O |  |  | human | oral drink, dose not given, 90 min post dose, mean |  | diastolic blood pressure | 64 mmHg
O=C(O)CN1CCCN2CCN(CC(=O)O)CCCN(CC1)Cc1cccc(n1)C2 |  |  | 64Cu complex | 12 h, pH 7.4, 37 °C, added: DOTA excess |  | intact complex | 96%
Cc1ccc([C@@H]2O[C@H](CO)[C@@H](O)[C@H](O)[C@H]2O)cc1Cc1ccc(-c2ccc(F)cc2)s1 |  |  | Japanese type 2 diabetes patients | 200 mg, day 17, 24 h urine collection | reference: baseline | urinary calcium excretion change | -29.7 mg
Cc1ccc(C(=O)N(CCCN)C(c2nc3snc(C)c3c(=O)n2Cc2ccccc2)C(C)C)cc1 (centres unmarked) |  |  | human patients | intravenous, 13 mg/day |  | grade ≥3 fatigue patients | 0%
C[C@@H]1CN(CC(=O)N2CC(C)(C)c3nc(CO)c(Cc4ccc(F)cc4)cc32)[C@@H](CN2CCOC[C@H]2C)CN1 |  |  | Sprague Dawley rat, male, bile duct cannulated, bile | intravenous, 5 mg/kg |  | biliary clearance | 2.5 mL/min/kg
Cc1cc(Nc2ccc(S(F)(F)(F)(F)F)cc2)n2nc(C(C)(F)F)nc2n1 | Plasmodium falciparum | 12-lead ECG | malaria patients | oral, 250 mg, increase above 60 ms |  | patients with QTcF increase | 0%
N[C@@H]1c2ccccc2OC12CCN(c1cnc3c(N4CCCc5ncccc54)n[nH]c3n1)CC2 |  |  | advanced metastatic solid tumour patients, plasma | oral, 100 mg once daily, cycle 1 day 1, geometric mean |  | AUC(0-tau) | 5350 ng·h/mL
COc1ccc2c(c1)CN(C(=O)CCN1CCC(Cc3ccccc3)CC1)CC[S@@+]2[O-] |  | telemetry | conscious male beagle dogs | intravenous, 4 mg/kg, 4 h |  | PQ interval | 91 ± 5 ms
CC(C)(C)c1ccc([C@@H]2COC[C@H](C3CCCCC3)N2)cc1 |  | shake-flask, 1-octanol/buffer |  | pH 7.4 |  | logD | > 4.7
OCc1nc2ccc(NCc3ccc(C(F)(F)F)cc3)cc2[nH]1 |  |  | Balb/c mouse, male, kidney | oral, 10 mg/kg, 6 h |  | tissue concentration | 489 ± 97.3 ng/g
C=CC(=O)NC1CCN(c2ncc3ncnc(Nc4ccc(Oc5ccc6c(c5)ncn6C)c(C)c4)c3n2)CC1 |  |  | human, male, plasma | oral, 30 mg, fed | reference: fasted | AUC0-∞ reduction | 25%
CC(C)(C(=O)N1CCOc2c(C#N)cncc2C1)C(F)F |  | refers to: Dizziness | human | oral, 20 mg once daily, 14 days, multiple ascending dose |  | subjects with adverse event | 0%
C[C@@H](c1ncncc1F)[C@](O)(Cn1cncn1)c1ccc(F)cc1F |  |  | human | oral, 200 mg, drug interaction trial |  | grade 3-4 TEAE | 0%

Compound | tested on | assay | test system | conditions | how to read | measurement | value
FC(F)(F)c1ccc([C@H]2COC[C@@H](C3CCCCC3)N2)cc1 |  | shake-flask, 1-octanol/buffer |  | pH 7.4 |  | logD | > 4.7
CN1CCCC1CCNS(=O)(=O)c1ccc2c(c1)CN(CC1CCCCC1)CC2 (centres unmarked) |  |  | wild-type mouse, pons/cerebellum | oral in diet, 0.02% in diet, 6 months |  | Cmin | 100 ng/g
C[C@H](N[C@@H](CCc1ccccc1)C(=O)O)C(=O)N1[C@H](C(=O)O)C[C@H]2CCCC[C@@H]21 |  |  | human plasma | 30 pg/mL, 3 cycles at -20 °C | reference: nominal | freeze-thaw stability | 81.1 ± 6%
CC[C@H](CO)N(CCN(N=O)[C@H](CC)CO)N=O | Salmonella typhimurium | mutagenicity, Ames plate incorporation | TA100 | 150 µg/plate, without S9, methanol |  | revertant colonies per plate | 141 ± 7
CN(CCC(=O)O)C(=O)c1ccc2c(c1)CC[C@@H]1[C@@H]2CC[C@]2(C)C(c3cncc(F)c3)=CC[C@@H]12 |  |  | premenopausal women, endometriosis pain, serum | 60 mg twice daily, visit 6, mean | reference: baseline | direct bilirubin change | 0.215 mg/dL
COc1cc2nccc(Oc3ccc(NC(=O)c4cc5c(n(-c6ccccc6)c4=O)CCCC5=O)nc3)c2cc1OC |  |  | human, relapsed/refractory AML | oral, dose not given, grade ≥3, any causality, all doses |  | patients with decreased platelet | 15%
CC(=O)N[C@H]1CC[C@H](NC(=O)CN2CCN(c3nncc(-c4ccc(C)cc4)n3)CC2)CC1 |  |  | healthy human, plasma | oral, 100 mg single dose | reference: female over male | AUC0-∞ ratio | 1.2
CO[C@H]1C[C@@H]2CC[C@@H](C)[C@@](O)(O2)C(=O)C(=O)N2CCCC[C@H]2C(=O)O[C@H]([C@H](C)C[C@@H]2CC[C@@H](OC(=O)NCCOCCOCCOCCOCCOCCOCCOCCOCCC(=O)N3CCc4cc(Cn5nc(-c6ccc7oc(N)nc7c6)c6c(N)ncnc65)ccc4C3)[C@H](OC)C2)C[C@@H](O)[C@H](C)/C=C(\C)[C@@H](O)[C@@H](OC)C(=O)[C@H](C)C[C@H](C)/C=C/C=C/C=C/1C |  |  | human, plasma | intravenous, 3 mg, cycle 1 | reference: day 15 over day 1 | AUClast ratio | 2.1
CCN1CCN(Cc2ccc(NC(=O)c3ccc(C)c(NC(=O)c4cncc(-c5cccs5)c4)c3)cc2C(F)(F)F)CC1 |  | LC-MS/MS | C57BL/6 mouse, plasma | intraperitoneal, 20 mg/kg single dose, 8 h |  | mean plasma concentration | 60 ng/mL
CC(C)C[C@H](NC(=O)[C@H](CC(C)C)NC(=O)[C@H](Cc1c[nH]c2ccccc12)NC(=O)[C@H](CCC(=O)O)NC(=O)[C@@H](NC(=O)[C@H](Cc1ccccc1)NC(=O)[C@H](CCC(=O)O)NC(=O)[C@H](CCCCNC(=O)COCCOCCNC(=O)COCCOCCNC(=O)CC[C@H](NC(=O)CCCCCCCCCCCCCCCCCCC(=O)O)C(=O)O)NC(=O)[C@H](C)NC(=O)[C@H](CCCCN)NC(=O)[C@H](CCCCN)NC(=O)[C@H](CCC(=O)O)NC(=O)[C@H](CC(=O)O)NC(=O)[C@H](CC(C)C)NC(=O)[C@H](Cc1ccc(O)cc1)NC(=O)[C@H](CCCCN)NC(=O)[C@H](CO)NC(=O)[C@H](Cc1ccc(O)cc1)NC(=O)[C@H](CC(=O)O)NC(=O)[C@H](CO)NC(=O)[C@@H](NC(=O)[C@H](Cc1ccccc1)NC(=O)[C@@H](NC(=O)CNC(=O)[C@H](CCC(N)=O)NC(=O)C(C)(C)NC(=O)[C@@H](N)Cc1c[nH]cn1)[C@@H](C)O)[C@@H](C)O)C(C)C)C(=O)N[C@@H](CCC(=O)O)C(=O)NCC(=O)NCC(=O)N1CCC[C@H]1C(=O)N[C@@H](CO)C(=O)N[C@@H](CO)C(=O)NCC(N)=O |  |  | human, plasma | subcutaneous, 16 mg weekly, week 20 |  | %AUC extrapolated | 1%
O=C(COc1ccc(Cl)cc1)NC12CC(c3nnc([C@H]4C[C@@H](OC(F)(F)F)C4)o3)(C1)C2 |  |  | humans | 200 mg once daily |  | procedural pain | 11.1%
CC[C@H](C)[C@H](NC(=O)[C@H](Cc1ccccc1)NC(=O)[C@H](CCC(=O)O)NC(=O)[C@H](CCCCNC(=O)COCCOCCNC(=O)COCCOCCNC(=O)CC[C@H](NC(=O)CCCCCCCCCCCCCCCCC(=O)O)C(=O)O)NC(=O)[C@H](C)NC(=O)[C@H](C)NC(=O)[C@H](CCC(N)=O)NC(=O)CNC(=O)[C@H](CCC(=O)O)NC(=O)[C@H](CC(C)C)NC(=O)[C@H](Cc1ccc(O)cc1)NC(=O)[C@H](CO)NC(=O)[C@H](CO)NC(=O)[C@@H](NC(=O)[C@H](CC(=O)O)NC(=O)[C@H](CO)NC(=O)[C@@H](NC(=O)[C@H](Cc1ccccc1)NC(=O)[C@@H](NC(=O)CNC(=O)[C@H](CCC(=O)O)NC(=O)C(C)(C)NC(=O)[C@@H](N)Cc1cnc[nH]1)[C@@H](C)O)[C@@H](C)O)C(C)C)C(=O)N[C@@H](C)C(=O)N[C@@H](Cc1c[nH]c2ccccc12)C(=O)N[C@@H](CC(C)C)C(=O)N[C@H](C(=O)N[C@@H](CCCNC(=N)N)C(=O)NCC(=O)N[C@@H](CCCNC(=N)N)C(=O)NCC(=O)O)C(C)C |  | 12-lead Holter ECG | healthy humans | subcutaneous, 1.5 mg once weekly, 25 h, steady state | reference: placebo | QTcF change from baseline | -0.3 ms
CNC(=O)c1ccc(-c2cnc3ncc(Cc4ccc5ncccc5c4)n3n2)cc1F |  |  | human, plasma | oral, 200 mg, geometric mean |  | AUC(0-inf) | 5260 ng·h/mL
Cc1cc(NC(=O)c2cccc(NC(=O)/C=C/CN(C)C)c2)ccc1Nc1nccc(-c2cccnc2)n1 |  |  | rat Wistar male, primary hepatocytes | 1 µM |  | intrinsic clearance, scaled | 11.7 mL/min/kg
CCOC(=O)N1C[C@@H](C2CCCCC2)N[C@@H](c2cccc(Br)c2)C1 |  | shake-flask, 1-octanol/buffer |  | pH 7.4 |  | logD | > 4.7
O=C(N[C@H](Cc1c[nH]c2ccccc12)C(=O)Nc1ccncc1)c1ccc(N2CCN(c3ccc(F)cc3F)CC2)cc1F |  |  | Swiss Webster mouse, female, heart | oral, 50 mg/kg, 2 h, 20% HPβCD vehicle |  | concentration | 3.87 µM
COc1cc(NC(=O)CSc2nncn2C)cc(OC)c1OC |  |  | octanol/buffer | pH 7.4 |  | logD | 0.58
COc1cccc(OC)c1-c1cc(C(=O)NC2(C(=O)O)C3CC4CC(C3)CC2C4)nn1-c1ccc(C(=O)N(C)CCCN(C)CCCN(C)C(=O)CN2CCN(CC(=O)[O-])CCN(CC(=O)[O-])CCN(CC(=O)[O-])CC2)cc1C(C)C.[177Lu+3] (centres unmarked) |  |  | mouse HT-29 xenograft, small intestine | 168 h post injection, biodistribution |  | tissue uptake | 0.081 %ID/g
c1cc(-c2ccc3ncnc(Nc4ncco4)c3c2)nc(N2C[C@H]3C[C@@H]2CO3)n1 |  |  | human liver microsomes |  |  | CLint | 53 µL/min/mg
COc1ccc2c(C)nc(Nc3nc(C)cc(O)n3)nc2c1 |  |  | octanol/buffer | pH 7.4 |  | logD | 2.51
